Published values from different studies.
“And” joins repeats or separate records; there may be more than shown. ± marks the error that the study gave. Values after ≈ are worked out from the molar mass of the structure shown.
HDAC6 ZnF-UBD domain: Protein deacetylase HDAC6, ZnF-UBD domain (HDAC6, Homo sapiens, UniProt Q9UBN7)
UniProt Q9UBN7, sequence (whole entry, looked up): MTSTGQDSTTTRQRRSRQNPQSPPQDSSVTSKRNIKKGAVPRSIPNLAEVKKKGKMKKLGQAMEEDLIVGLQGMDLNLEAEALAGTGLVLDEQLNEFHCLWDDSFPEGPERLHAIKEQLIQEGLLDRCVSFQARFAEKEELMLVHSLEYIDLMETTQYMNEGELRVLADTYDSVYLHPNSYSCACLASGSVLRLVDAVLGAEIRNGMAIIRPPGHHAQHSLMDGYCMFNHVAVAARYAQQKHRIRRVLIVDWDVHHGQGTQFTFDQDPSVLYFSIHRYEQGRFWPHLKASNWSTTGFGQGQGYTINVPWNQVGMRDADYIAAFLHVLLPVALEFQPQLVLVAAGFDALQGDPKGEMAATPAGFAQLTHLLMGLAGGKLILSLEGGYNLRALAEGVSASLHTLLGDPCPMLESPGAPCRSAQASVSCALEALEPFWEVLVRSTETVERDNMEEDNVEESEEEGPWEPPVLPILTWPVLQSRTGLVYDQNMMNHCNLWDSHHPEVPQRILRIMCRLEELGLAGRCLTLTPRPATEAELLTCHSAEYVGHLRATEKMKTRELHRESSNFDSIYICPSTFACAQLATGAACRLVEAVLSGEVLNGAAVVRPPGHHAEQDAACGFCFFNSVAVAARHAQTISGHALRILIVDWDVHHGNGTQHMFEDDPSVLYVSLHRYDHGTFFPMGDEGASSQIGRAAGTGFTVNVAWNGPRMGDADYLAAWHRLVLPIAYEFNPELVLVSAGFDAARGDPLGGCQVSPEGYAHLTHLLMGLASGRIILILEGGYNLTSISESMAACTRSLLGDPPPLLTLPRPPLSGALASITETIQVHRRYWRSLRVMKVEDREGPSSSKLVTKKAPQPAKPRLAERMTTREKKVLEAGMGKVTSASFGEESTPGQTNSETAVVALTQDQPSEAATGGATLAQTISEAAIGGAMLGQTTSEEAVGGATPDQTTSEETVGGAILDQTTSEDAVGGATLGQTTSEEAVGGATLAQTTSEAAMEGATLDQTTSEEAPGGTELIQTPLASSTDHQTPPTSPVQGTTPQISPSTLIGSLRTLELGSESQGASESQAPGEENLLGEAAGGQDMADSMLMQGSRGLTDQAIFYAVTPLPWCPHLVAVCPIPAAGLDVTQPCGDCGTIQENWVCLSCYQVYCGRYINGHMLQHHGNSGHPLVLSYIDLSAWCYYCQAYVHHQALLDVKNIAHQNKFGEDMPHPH
UniProt P49773, sequence (whole entry, looked up): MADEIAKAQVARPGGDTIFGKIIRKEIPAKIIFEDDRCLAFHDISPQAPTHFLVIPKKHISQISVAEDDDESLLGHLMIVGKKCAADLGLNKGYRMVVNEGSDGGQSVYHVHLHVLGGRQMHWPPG
UniProt Q96GX5, sequence (whole entry, looked up): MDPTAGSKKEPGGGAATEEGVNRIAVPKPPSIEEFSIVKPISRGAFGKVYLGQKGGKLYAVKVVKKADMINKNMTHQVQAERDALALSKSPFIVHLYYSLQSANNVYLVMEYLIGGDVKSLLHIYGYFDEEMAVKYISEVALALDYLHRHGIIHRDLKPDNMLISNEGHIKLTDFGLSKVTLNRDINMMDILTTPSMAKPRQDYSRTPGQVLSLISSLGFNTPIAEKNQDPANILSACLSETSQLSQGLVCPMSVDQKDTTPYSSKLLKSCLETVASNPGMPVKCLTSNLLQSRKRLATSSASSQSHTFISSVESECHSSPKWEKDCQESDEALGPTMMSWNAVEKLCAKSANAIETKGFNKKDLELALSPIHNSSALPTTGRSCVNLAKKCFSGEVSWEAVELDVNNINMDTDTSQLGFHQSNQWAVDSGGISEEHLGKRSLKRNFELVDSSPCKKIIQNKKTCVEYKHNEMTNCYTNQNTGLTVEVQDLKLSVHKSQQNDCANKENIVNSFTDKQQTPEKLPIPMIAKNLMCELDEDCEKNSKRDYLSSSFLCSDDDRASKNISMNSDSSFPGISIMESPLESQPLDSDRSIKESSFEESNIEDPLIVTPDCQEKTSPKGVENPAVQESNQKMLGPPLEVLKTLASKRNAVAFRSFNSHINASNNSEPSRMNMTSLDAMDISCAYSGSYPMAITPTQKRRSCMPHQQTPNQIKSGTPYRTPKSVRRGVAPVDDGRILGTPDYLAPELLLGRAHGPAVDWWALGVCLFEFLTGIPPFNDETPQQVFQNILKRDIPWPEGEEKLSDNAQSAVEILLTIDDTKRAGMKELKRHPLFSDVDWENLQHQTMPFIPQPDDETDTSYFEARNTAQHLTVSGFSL

SMILES	target or system	test	test system	conditions	scale	quantity	result
CCCNC(C)C(=O)Nc1c(C)csc1C(=O)OC (centres unmarked)	H+/organic cation antiporter	cell uptake	hCMEC/D3			Km	94.3 µM
CCN1CCC(CCNCc2cc3cc(-c4ccccc4)ccc3nc2SCc2ccccc2)CC1	electron transport chain	proton pumping, ACMA quenching	Pseudomonas aeruginosa inverted membrane vesicles	32 µg/mL, added: NADH		inhibition	83%
c1coc(-c2n[nH]cc2-c2ccnc3ccccc23)c1	PTK2 (Candida albicans)	kinase binding, MIB/MS competition	Candida albicans lysate	10 µM	reference: DMSO	log2 fold change	0.14
NC(=O)c1cnc2[nH]ccc2c1N[C@@H]1[C@@H]2CC3C[C@H]1C[C@@](O)(C3)C2		CD8+ memory T cells, flow cytometry	Japanese humans, peripheral blood	20 mg single dose	reference: baseline	percent change	-0.3%
CCS(=O)(=O)c1nc(C2CC2)cc(C(F)(F)F)n1	importin alpha/beta-1	cMyc nuclear import, high content imaging	HeLa Kyoto reporter	0.5 µM, 2 h		cells with nuclear reporter	91.5% and 93.8% and 65.8% and 96.9%
O=C(COP(=O)(O)O)[C@@H](O)[C@H](O)[C@H](O)COP(=O)(O)O	HINT1 (Homo sapiens, UniProt P49773)	thermal proteome profiling	HepG2 cell lysate	concentration not given, 57 over 37 °C, mean	reference: compound over control	thermal stability ratio	0.723
O=C1CC2(CCCC2)CC(=O)N1CCCCN1CCN(c2ncccn2)CC1	H+/organic cation antiporter	cell uptake	hCMEC/D3			Vmax	174 pmol/min/mg protein
CC(C)n1ccnc1CN1CCN(Cc2nccn2C(C)C)CCN(Cc2nccn2C(C)C)CC1	Zn2+	potentiometric titration		pH 7.4, ligand and metal 2 mM		pZn	> 12.8
C[C@@H]1CC[C@H]2[C@@H](/C1=C/C[C@H]1[C@]3(C)CCC(=O)C(C)(C)O[C@H]3CC[C@]1(C)O)C(C)(C)CC[C@]2(C)O	P-glycoprotein human	inhibitor, efflux	KB-C2	10 µM, 30 min, added: [3H]-paclitaxel		paclitaxel remaining	82.3%
COC1=C(OC)C(=O)C(CC=C(C)C)=C(C)C1=O	FSP1 F354A mutant	substrate		added: 100 µM co-substrate		kcat	10.1 ± 1.34 s⁻¹
COc1nc(NCc2cn(-c3ccc(C(=O)Nc4ccccc4)cc3)nn2)nc(OC)n1	calf thymus DNA	DNA damage, Tb3+ fluorescence		24 h		limit of detection	2.67 nM
CC(C)n1cc(C(C)(C)C)nc1CN1CCN(Cc2nc(C(C)(C)C)cn2C(C)C)CCN(Cc2nc(C(C)(C)C)cn2C(C)C)CC1	Zn2+	potentiometric titration			reference: Zn2+ over Mn2+	stability constant difference	3.3 orders of magnitude
CCn1cc(C(=O)O)c(=O)c2cc(F)c(N3CCNCC3)nc21	human seizure ion channel panel	ion current, automated patch clamp				lowest IC30 across channels	> 30 µM
c1ccc(CSc2nc3ccc(-c4ccccc4)cc3cc2CNCc2ccc(CN3CCCC3)cc2)cc1	electron transport chain	proton pumping, ACMA quenching	Pseudomonas aeruginosa inverted membrane vesicles	2 µg/mL, added: NADH		inhibition	12%
O=C1NC(=O)C(c2ccccc2)(c2ccccc2)N1	human seizure ion channel panel	ion current, automated patch clamp				lowest IC30 across channels	> 30 µM
CC(CN(C)C)CN1c2ccccc2CCc2ccccc21 (centres unmarked)	H+/organic cation antiporter	cell uptake	hCMEC/D3			Km	21.2 µM
C=C1CC(C(=O)Nc2cc(C(=O)NC)cc(-c3ccc(C(C)=O)s3)c2OC)C1	TREM2 (human)	reporter gene, agonist, NFAT luciferase reporter	Jurkat-NFAT cells overexpressing TREM2	25 µM, 4 h	reference: control	luciferase activity	~240%
COc1cc2cc(CNCCN3CCN(C)CC3)c(SCc3ccccc3)nc2c(OC)c1OC	electron transport chain	proton pumping, ACMA quenching	Pseudomonas aeruginosa inverted membrane vesicles	2 µg/mL, added: NADH		inhibition	11%
Nc1ncnc2c1ncn2[C@@H]1O[C@H](COP(=O)(O)OP(=O)(O)OP(=O)(O)O)[C@@H](O)[C@H]1O	P2Y receptor	calcium response, fura-2 imaging	16HBE14o- cells	1 µM		responding cells	15.2 ± 3.8%
CN[C@H](CC(C)C)C(=O)N[C@H]1C(=O)N[C@@H](CC(N)=O)C(=O)N[C@H]2C(=O)N[C@H]3C(=O)N[C@H](C(=O)N[C@H](C(=O)O)c4cc(O)cc(O)c4-c4cc3ccc4O)[C@H](O)c3ccc(c(Cl)c3)Oc3cc2cc(c3O[C@@H]2O[C@H](CO)[C@@H](O)[C@H](O)[C@H]2O[C@H]2C[C@](C)(N)[C@H](O)[C@H](C)O2)Oc2ccc(cc2Cl)[C@H]1O	Streptococcus pyogenes		10 isolates	pH 5.5		MIC50	0.5 µg/mL (≈ 0.345 µM)
CCCN1CCCC[C@H]1C(=O)Nc1c(C)cccc1C	H+/organic cation antiporter	cell uptake	hCMEC/D3			Vmax	224 pmol/min/mg protein
O=C(O)CCn1nnc(-c2ccccc2)n1	HDAC6 ZnF-UBD domain					Kd	232 µM
COc1nc(NCc2cn(-c3ccc(C(=O)Nc4ccc(C(F)(F)F)cc4)cc3)nn2)nc(OC)n1	calf thymus DNA	DNA damage, Tb3+ fluorescence		24 h		limit of detection	1.87 nM
CN(C)CCOC(C)(c1ccccc1)c1ccccn1 (centres unmarked)	H+/organic cation antiporter	cell uptake	hCMEC/D3			Km	30 µM
O=C(NN=Cc1ccc(C[n+]2ccccc2)cc1)c1ccc2ccc3ccc(C(=O)NN=Cc4ccc(C[n+]5ccccc5)cc4)nc3c2n1.[Br-].[Br-]	telomeric G4 DNA hybrid-2	FRET melting		1 µM, DNA 0.2 µM, added: duplex DNA competitor 10 µM		ΔTm	36 °C

SMILES	target or system	test	test system	conditions	scale	quantity	result
CC(=O)NC[C@H]1CN(c2ccc(N3CCOCC3)c(F)c2)C(=O)O1	Streptococcus pyogenes		10 isolates	serum 50%		MIC50	1 µg/mL (≈ 2.96 µM)
CC[S+]([O-])c1nc(-c2ccccc2)cc(C(F)(F)F)n1 (centres unmarked)	importin alpha/beta-1	cMyc nuclear import, high content imaging	HeLa Kyoto reporter	15.8 µM, 2 h		cells with nuclear reporter	4.45% and 0.97% and 1.85% and 0.86%
Oc1ccccc1-c1n[nH]cc1-c1ccnc2ccccc12	DUN1 (Candida albicans)	kinase binding, MIB/MS competition	Candida albicans lysate	1 µM	reference: DMSO	log2 fold change	-0.01
CN1CCN(CCNCc2cc3cc(-c4ccccc4)ccc3nc2SCc2ccccc2)CC1	electron transport chain	proton pumping, ACMA quenching	Pseudomonas aeruginosa inverted membrane vesicles	2 µg/mL, added: NADH		inhibition	13%
CCN(C)C(=O)Oc1cccc([C@H](C)N(C)C)c1	H+/organic cation antiporter	cell uptake	hCMEC/D3			Vmax	943 pmol/min/mg protein
COc1cccc2c1C(=O)c1c(O)c3c(c(O)c1C2=O)C[C@@](O)(C(=O)CO)C[C@@H]3O[C@H]1C[C@H](N)[C@H](O)[C@H](C)O1	calf thymus DNA	Tb3+ fluorescence			no further fluorescence increase above	concentration of maximal DNA damage	4 µM
O=C(O)CNC(=O)c1ccc(S(=O)(=O)N2CCC(n3c(=O)oc4ccccc43)CC2)cc1	HDAC6 ZnF-UBD domain					Kd	234 µM
CC(Nc1nc(N2CCCC2)nc2ccccc12)c1ccccc1 (centres unmarked)	transportin-1/2	FUS nuclear import, high content imaging	HeLa Kyoto reporter	1 µM, 2 h		cells with nuclear reporter	94.6%
c1ccc(CSc2nc3ccccc3cc2CNCc2ccc(CN3CCCC3)cc2)cc1	electron transport chain	proton pumping, ACMA quenching	Pseudomonas aeruginosa inverted membrane vesicles	32 µg/mL, added: NADH		inhibition	87%
CN(C)CCCN1c2ccccc2Sc2ccc(Cl)cc21	human seizure ion channel panel	ion current, automated patch clamp				lowest IC30 across channels	2.37 µM
CNC(=O)c1cc(Oc2ccc(NC(=O)Nc3ccc(Cl)c(C(F)(F)F)c3)cc2)ccn1	PKCβII (human)	kinase activity, inhibitor		10 µM		inhibition	-2%
COc1ccc2c(c1)c(CC(=O)O)c(C)n2C(=O)c1ccc(Cl)cc1	human seizure ion channel panel	ion current, automated patch clamp				lowest IC30 across channels	> 30 µM
COc1cc2cc(CNCCC3CCN(C4CCCC4)CC3)c(SCc3ccccc3)nc2c(OC)c1OC	electron transport chain	proton pumping, ACMA quenching	Pseudomonas aeruginosa inverted membrane vesicles	32 µg/mL, added: NADH		inhibition	82%
C[n+]1cccc2cc(C=NNC(=O)c3ccc4ccc5ccc(C(=O)NN=Cc6ccc7c(ccc[n+]7C)c6)nc5c4n3)ccc21.[I-].[I-]	telomeric G4 DNA hybrid-2	FRET melting		1 µM, DNA 0.2 µM, added: duplex DNA competitor 10 µM		ΔTm	34.9 ± 0.6 °C
CCCCN1CCCCC1C(=O)Nc1c(C)cccc1C (centres unmarked)	H+/organic cation antiporter	cell uptake	hCMEC/D3			Km	92.8 µM
C#CCOc1ccccc1N1CCN(C(=O)c2cccc(S(=O)(=O)n3cnc(C4CC4)n3)c2)CC1	AKR1C1 (human)	label-free chemoproteomics LC-MS/MS	COLO 205	100 µM, 4 h, 37 °C	reference: AKR1C3 Tyr24 over AKR1C1 Tyr24	ratio of Tyr24 modification	> 10 fold
N[C@@H](Cc1ccc(O)c(O)c1)C(=O)O	human seizure ion channel panel	ion current, automated patch clamp				lowest IC30 across channels	> 30 µM
CC(=O)ON=C1C=CC(=C(C#N)c2ccccc2)C=C1	Leishmania major CK1	enzyme activity, inhibitor, ADP-Glo		20 µM, about MIC, added: ATP 10 µM		remaining activity	98%
Cn1cc(-c2ccc(-c3cncc(Cl)c3N3CCC4(CCNC4=O)CC3)cc2)cn1	COLO 205	gene expression, microarray, item: HSPA1B (HSPA1A) mRNA		concentration not given, 6 h	reference: untreated cells	log2 fold change	4.31
CC(C)(c1ccc(O)cc1)c1ccc(O)cc1	camel nanobody T2	binding, competitive ELISA		concentration not given		cross-reactivity	< 0.1%
CCCCCCCC(=O)OC[C@H](COP(=O)(O)O[C@@H]1[C@H](O)[C@H](O)[C@@H](OP(=O)(O)O)[C@H](OP(=O)(O)O)[C@H]1O)OC(=O)CCCCCCC	Kv7.2/Kv7.3(EEE) mutant channel	channel open probability, activator, fitted PIP2 binding model		model 4, K3 constrained	reference: channel without bound PIP2	efficacy factor E3	0.28
CC(C)C[C@H](NC(=O)C[C@H](O)[C@H](CC(C)C)NC(=O)[C@H](Cc1c[nH]cn1)NC(=O)CNC(=O)[C@@H](NC(=O)[C@H](C)NC(=O)[C@H](Cc1c[nH]c2ccccc12)NC(=O)[C@H](CCC(N)=O)NC(=O)[C@@H](Cc1ccccc1)NC(=O)COCCOCCNC(=O)CCC(C(=O)O)N1CCN(CC(=O)O)CCN(CC(=O)O)CCN(CC(=O)O)CC1)C(C)C)C(N)=O (some centres unmarked) [lutetium-177 labelled]			BALB/c nu/nu mice, large intestine	250 pmol, 1 h, added: PA 300 µg		tissue uptake	0.9 ± 0.2 %ID/g
CC[C@@H]1[C@H](F)C(=O)N[C@@H]1COc1nccc2cc(C(N)=O)c(OC)cc12	MASTL (Homo sapiens, UniProt Q96GX5)	ATP-site probe binding, inhibitor, ActivX ATP probe profiling	THP-1 cell lysate	0.2 mM, ATP loop site		inhibition	16.4%
Cc1cccc(C)c1NC(=O)C1CCCCN1C (centres unmarked)	H+/organic cation antiporter	cell uptake	hCMEC/D3			Vmax	1500 pmol/min/mg protein
OC(CCN1CCCCC1)(c1ccccc1)C1CC2C=CC1C2 (centres unmarked)		resting-state EEG	healthy elderly humans	oral, 2 mg, eyes open, LS mean	reference: baseline	change in EEG Alpha2-power Fz-Cz	34.4%

Some of these lines once more:
SMILES	target or system	test	test system	conditions	scale	quantity	result
CCCCN1CCCCC1C(=O)Nc1c(C)cccc1C (centres unmarked)	H+/organic cation antiporter	cell uptake	hCMEC/D3			Km	92.8 µM
C#CCOc1ccccc1N1CCN(C(=O)c2cccc(S(=O)(=O)n3cnc(C4CC4)n3)c2)CC1	AKR1C1 (human)	label-free chemoproteomics LC-MS/MS	COLO 205	100 µM, 4 h, 37 °C	reference: AKR1C3 Tyr24 over AKR1C1 Tyr24	ratio of Tyr24 modification	> 10 fold
N[C@@H](Cc1ccc(O)c(O)c1)C(=O)O	human seizure ion channel panel	ion current, automated patch clamp				lowest IC30 across channels	> 30 µM
